Results from different studies.
Numbered parts are unrelated; each lists some results of a single study.

Set 1 — technique: RNAcompete; molecule type: RNA; matrix: in vitro; concentration: 20 nM; notes: 7-mer, probes averaged, single round; relative to: mean of 7-mers; direction: higher = stronger binding
Target: PABPC1L2, full length, GST fusion (mouse, UniProt A0ABA7IW68)
Construct (chain): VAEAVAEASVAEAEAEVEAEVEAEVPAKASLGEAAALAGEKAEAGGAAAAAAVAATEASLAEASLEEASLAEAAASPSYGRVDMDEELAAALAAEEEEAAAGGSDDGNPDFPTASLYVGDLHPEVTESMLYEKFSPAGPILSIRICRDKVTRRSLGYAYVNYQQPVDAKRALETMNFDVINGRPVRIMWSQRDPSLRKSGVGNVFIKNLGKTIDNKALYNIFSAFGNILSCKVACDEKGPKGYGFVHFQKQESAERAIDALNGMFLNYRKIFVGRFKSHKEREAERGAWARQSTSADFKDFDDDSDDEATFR
Sequence | 7-mer Z-score
CAAGCGC | -0.153
AGAAGUC | -0.333
CUUGUGA | -0.378
CCGACAU | -0.119
CGAAUUC | -0.229
UCUUCGU | -0.463
GAUAAUA | 0.155
UAAAUAC | 1.62
CCAUCGA | -0.162
AUACAAG | 0.133
GCAGUUC | -0.168
AAGCGCC | 0.0261
CGGCGGA | 0.269
AUGUUAU | -0.139
CCCUAUU | -0.275
UUACUAA | 0.142
AAAGACA | 1.6
CCGCCCG | -0.318
AAAGCCU | 0.501
UGAAUCC | -0.289
CGAACGU | -0.32
UGUUCUA | -0.309
AAUGAUG | 0.171
UCUCCAA | -0.112
UUGUGAU | -0.378

Set 2 — technique: Spec-seq; molecule type: double-stranded DNA, one strand shown; matrix: in vitro; concentration: not given; notes: whole probe, mean of replicates; relative to: not given; direction: lower = stronger binding; all sequences stand within: GAGTCGTCTCGTCAGCAC … CCGTAGAGCACTCAGGTC
Target: POU domain, class 5, transcription factor 1, POU domain (Pou5f1, Mus musculus, UniProt P20263, residues 131-289)
Chain of UniProt P20263 (131-289, looked up): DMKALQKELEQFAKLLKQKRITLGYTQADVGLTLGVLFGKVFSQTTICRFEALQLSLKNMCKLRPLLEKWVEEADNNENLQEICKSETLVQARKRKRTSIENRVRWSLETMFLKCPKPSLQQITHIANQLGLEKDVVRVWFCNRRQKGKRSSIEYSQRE
Sequence | relative binding energy [ln ratio]
ACTTTAAT | 0.274
AGCGTAAT | 0.637
AGTGTAAT | 0.637
ATTTCTAT | 0.379
ATGCGAGA | 0.345
ATTCCTAT | 0.275
ATATATAT | -0.206
ATGCCGCT | 0.786
ATCTGCAT | -1.98
ATGCCAGC | 0.734
ATGCATGG | -0.386
ATCGAGAT | 0.555
AAGGTAAT | 0.634
CCTTTAAT | 0.756
AAAGTAAT | 0.359
ATGCCGAG | 0.86
AACGTAAT | 0.571
TTTCTAAT | 0.34
ATGCACCT | 0.188
ATGCCGAA | 0.732
ATGCTTAC | 0.165
ATGCGGAC | 0.366
CCGGTAAT | 0.693
ATGCTGGC | 0.756
ATCCAGAT | 0.679

Set 3 — technique: universal PBM; molecule type: double-stranded DNA, one strand shown; matrix: in vitro; concentration: not given; direction: higher = stronger binding
Target: Sal-like protein 4, full length isoform B (SALL4, Homo sapiens, UniProt Q9UJQ4-2, residues 1-616)
Notes: 8-mer, flanks averaged, mean of replicates
Sequence | E-score
CGTCTCGC | -0.239
ATATTTCC | 0.396
ACTACTCG | 0.0497
ACGATCGT | -0.0208
AGCAGACA | -0.0542
GAGCATGC | -0.114
ATGGGCTC | -0.126
TCGTCTCA | -0.0445
CATAGACA | 0.125
CATGTTAA | 0.2
CTCATATC | 0.174
CCTGGTAC | -0.201
GAGCAATC | -0.0916
ATTCAACG | 0.116
CAAGACGC | -0.133
ACAGGGAC | -0.187

Set 4 — technique: protein binding microarray; molecule type: double-stranded DNA, one strand shown; matrix: in vitro; concentration: not given; relative to: not given; direction: higher = stronger binding
Target: Histone acetyltransferase KAT6A, winged helix 2, GST fusion (KAT6A, Homo sapiens, UniProt Q92794, residues 85-181)
Notes: 8-mer, flanks averaged, mean of 2 arrays, mostly near background
Construct (chain): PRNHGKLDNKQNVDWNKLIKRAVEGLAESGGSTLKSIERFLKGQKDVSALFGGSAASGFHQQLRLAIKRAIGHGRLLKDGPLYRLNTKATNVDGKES
Sequence | E-score
AGCGAGCT | 0.162
ACTCAGTC | -0.147
CTGGTGGA | -0.101
TGGCCTAA | -0.123
TTGGGAAA | 0.169
AATCCAAT | -0.129
AACGATTG | 0.058
AATGGAGT | 0.0368
ATCAATGG | -0.237
CACCCATA | -0.326
GATCAACA | 0.0679
CAAGCGTC | 0.0965
ACCGCAAC | 0.259
GAGCTTTA | 0.0563
GCCGAGCC | 0.178
CCACCCTC | 0.14
ATGCGGCC | 0.0528
TCGTGGAA | 0.0384
CAGGGACG | 0.0034
CTAGTTTC | 0.0159

Set 5 — technique: protein-binding microarray; molecule type: double-stranded DNA, one strand shown; matrix: in vitro; concentration: 250 nM; notes: 60-bp whole probe; together with: salmon DNA 0.4 mg/ml; relative to: random background probes; direction: higher = stronger binding; all sequences stand within: GCCTAGCAC … GTCTTGATTCGCTTGACGCTGCTG
Target: Interferon regulatory factor 5, full length, phosphomimetic (IRF5, Homo sapiens, UniProt Q13568-2, residues 1-514, K96S/S451D/S453D/S456D/S462D)
Sequence | log fluorescence [z-score]
TATTATTTGCCTTGCATTTTGTGCTAG | 0.574
GACCATTTCAGTTCCGAGACGTGCTAG | 1.2
GACGATTTCGAGTTTCGAGACGTGCTA | 5.38
TTAGATTTCAGGCTGGATTAGTGCTAG | 0.529
GACGATCTCCTTATCCTGACGTGCTAG | -0.175
TTGTTTCTAATATTCTGCTTGTGCTAG | 1.8
TTAGGACTGTACTATCGGTTAGTGCTA | 7.26
GACGGTATCGAATTTCGGGACGTGCTA | 2.85
GAGGGACTGGACTTTCGGGACGTGCTA | 4.13
TCAGCCAGCTCTTTCGTACTGTGCTAG | 1.63
TTTGGTATCGGTCTCGGTTAGTGCTAG | 9.05
GACGGTTTCCTTTTCCTCACGTGCTAG | 1.32
GACGAACTGGGGTTTGGAGACGTGCTA | -0.425
TTAGGTTTCGGTTTCGGTTAGTGCTAG | 11.5
GACGGTTTCGGTATCGGGAAGTGCTAG | 9.51
TCAAGTTTCCATTTTCTACTGTGCTAG | 2.33
GATGGACTGGACTATCGGGACGTGCTA | 0.819
GAGGGTATCCTTTTCCTGACGTGCTAG | -0.274

Set 6 — technique: competition protein-binding microarray; molecule type: double-stranded DNA, one strand shown; matrix: in vitro; concentration: 2 µM; together with: Pho4 competitor, 0.05 µM; direction: higher = stronger binding
Target: Centromere-binding protein 1, full length, His-tagged (CBF1, Saccharomyces cerevisiae, UniProt P17106, residues 1-351)
Chain of UniProt P17106 (whole entry, looked up): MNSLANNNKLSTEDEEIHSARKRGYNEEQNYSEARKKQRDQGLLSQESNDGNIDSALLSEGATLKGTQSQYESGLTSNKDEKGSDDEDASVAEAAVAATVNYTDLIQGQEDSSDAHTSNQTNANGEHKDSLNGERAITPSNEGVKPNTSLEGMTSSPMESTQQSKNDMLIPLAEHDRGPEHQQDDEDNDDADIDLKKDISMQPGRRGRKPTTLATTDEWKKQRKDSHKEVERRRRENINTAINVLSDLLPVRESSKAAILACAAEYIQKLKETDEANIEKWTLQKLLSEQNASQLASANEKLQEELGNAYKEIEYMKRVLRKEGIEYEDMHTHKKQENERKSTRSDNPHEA
Notes: whole 60-bp probe, lowest competitor level
Sequence | fluorescence intensity
CCCGTTGAGCAGTGCCCCGTGGAACCGTAAACTATCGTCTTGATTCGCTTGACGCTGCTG | 70.6 a.u.
TCGAATAAAGTGAAACATGTGATACCCGCCATCCAAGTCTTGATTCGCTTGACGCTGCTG | 641 a.u.
AAGTTTTTTTCTACACGCATGAGCAGAATTAGACGGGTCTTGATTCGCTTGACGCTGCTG | 107 a.u.
CTGCATAGGTGGTTACACGGGGATGGTTTTTCTCTTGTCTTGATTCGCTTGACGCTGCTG | 97.1 a.u.
ACATTGTCCCTATTTCACGTGGCCGAATGACACAGTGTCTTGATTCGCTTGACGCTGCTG | 836 a.u.
CTCTTTCAGATTCGTCACGATTTTATGAAAGAAATAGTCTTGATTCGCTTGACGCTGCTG | 157 a.u.
AAAGCGGTAATTTGTCTGGTGGGTGCAGATATCTATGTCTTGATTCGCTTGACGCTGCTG | 90 a.u.
CATGTTCATACCCTTCACGTTTGTGGAGCAAAGGTTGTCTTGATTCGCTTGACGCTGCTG | 85.4 a.u.
CATACCCAACCTTGATTCGTGGGTGAAGATATTTGTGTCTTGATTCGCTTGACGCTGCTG | 75.4 a.u.
CGTCCTAGTGATTGTGGAGTGGGTGCCATGAGGAAGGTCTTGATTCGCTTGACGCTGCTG | 90.3 a.u.
AGATTGCCTCCCTGACATGTGGTGGCAGAAAACCTGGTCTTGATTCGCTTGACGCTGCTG | 105 a.u.
TCCAACGTATCAGTGCGCGTAATCCTTCTCTTGGTAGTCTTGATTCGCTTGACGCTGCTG | 57.7 a.u.
TGATCATATCAGCTTGTTCATTGCTCTTATTTTTCTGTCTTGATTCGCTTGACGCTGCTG | 79.4 a.u.
TGTGGGTAATTAGATAATTGTTGGGATTCCATTGTTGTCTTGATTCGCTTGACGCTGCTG | 72.2 a.u.
CGTCCTAGTGATTGTTCAGTGGGTGCCATGAGGAAGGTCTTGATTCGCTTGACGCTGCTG | 86.7 a.u.
TGCGCAACAACTTGTAAAGTGGGTGTATGTCTAGAAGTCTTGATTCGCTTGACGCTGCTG | 69.1 a.u.
CCATTGGTGTACCGTCACGTGCTAAGGTTCTGCTGTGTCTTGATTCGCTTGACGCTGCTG | 5140 a.u.
CTTTCCCGATCTTTTCACGTGGCTTTAGCACATTTGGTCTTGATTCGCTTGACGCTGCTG | 905 a.u.
CTTGGTGAAAATGGTAACGTGACTCGGTGTTGTTTTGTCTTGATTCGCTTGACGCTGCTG | 1930 a.u.
AGCCATACACCAAAGCACGTCGACGAGGTTATATTTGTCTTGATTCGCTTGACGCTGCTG | 102 a.u.
TATATAAGATAATTGCACATGCAAACAGTCAATCTTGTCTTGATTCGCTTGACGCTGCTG | 142 a.u.
AATAAGACGGACGGCCACGTGACGGAAGATTTTTTTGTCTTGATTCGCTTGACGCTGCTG | 4540 a.u.

A few entries again (set 6):
Sequence | fluorescence intensity
CCCGTTGAGCAGTGCCCCGTGGAACCGTAAACTATCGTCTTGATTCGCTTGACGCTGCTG | 70.6 a.u.
TCGAATAAAGTGAAACATGTGATACCCGCCATCCAAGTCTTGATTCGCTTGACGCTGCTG | 641 a.u.
AAGTTTTTTTCTACACGCATGAGCAGAATTAGACGGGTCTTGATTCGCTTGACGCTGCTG | 107 a.u.
CTGCATAGGTGGTTACACGGGGATGGTTTTTCTCTTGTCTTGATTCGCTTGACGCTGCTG | 97.1 a.u.
ACATTGTCCCTATTTCACGTGGCCGAATGACACAGTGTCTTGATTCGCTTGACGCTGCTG | 836 a.u.
CTCTTTCAGATTCGTCACGATTTTATGAAAGAAATAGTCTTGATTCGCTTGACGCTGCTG | 157 a.u.
AAAGCGGTAATTTGTCTGGTGGGTGCAGATATCTATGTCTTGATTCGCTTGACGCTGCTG | 90 a.u.
CATGTTCATACCCTTCACGTTTGTGGAGCAAAGGTTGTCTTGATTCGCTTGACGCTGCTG | 85.4 a.u.
CATACCCAACCTTGATTCGTGGGTGAAGATATTTGTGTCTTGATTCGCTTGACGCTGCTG | 75.4 a.u.
CGTCCTAGTGATTGTGGAGTGGGTGCCATGAGGAAGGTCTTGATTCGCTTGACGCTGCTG | 90.3 a.u.
AGATTGCCTCCCTGACATGTGGTGGCAGAAAACCTGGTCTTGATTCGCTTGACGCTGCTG | 105 a.u.
TCCAACGTATCAGTGCGCGTAATCCTTCTCTTGGTAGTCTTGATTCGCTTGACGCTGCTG | 57.7 a.u.
TGATCATATCAGCTTGTTCATTGCTCTTATTTTTCTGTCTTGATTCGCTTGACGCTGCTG | 79.4 a.u.
TGTGGGTAATTAGATAATTGTTGGGATTCCATTGTTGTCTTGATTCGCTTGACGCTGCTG | 72.2 a.u.
CGTCCTAGTGATTGTTCAGTGGGTGCCATGAGGAAGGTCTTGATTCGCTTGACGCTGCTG | 86.7 a.u.
TGCGCAACAACTTGTAAAGTGGGTGTATGTCTAGAAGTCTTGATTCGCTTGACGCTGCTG | 69.1 a.u.
CCATTGGTGTACCGTCACGTGCTAAGGTTCTGCTGTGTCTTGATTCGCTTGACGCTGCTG | 5140 a.u.
CTTTCCCGATCTTTTCACGTGGCTTTAGCACATTTGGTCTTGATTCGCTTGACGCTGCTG | 905 a.u.
